Measured values of several laboratories.
Parts stem from different laboratories: compare values within a part only.

Sample 1
Target: Interferon regulatory factor 5, full length, phosphomimetic (IRF5, Homo sapiens, UniProt Q13568-2, residues 1-514, S451D/S453D/S456D/S462D)
Method: protein-binding microarray
Form: double-stranded DNA, one strand shown
Matrix: in vitro
Concentration: 940 nM top
Setting: 60-bp whole probe
Added: salmon DNA 0.4 mg/ml
Baseline: random background probes
Reading: higher = stronger binding
Constant ends, left off below: GCCTAGCAC … GTCTTGATTCGCTTGACGCTGCTG
Strand	fitted relative affinity [z-score]
GTCGGACTGGACACTGGGGACGTGCTA	-0.601
GACGGACTGCTTTTCCTTACGTGCTAG	-0.183
TCATTTATATACCTGAAACTGTGCTAG	0.59
TCAGGACTGGACTTTCGGTTAGTGCTA	2.88
TCATCTTTTTTGTTCCAACTGTGCTAG	1.58
GACGATTTCGGGTATCGAGAGGTGCTA	1.63
GACGATTTCAGAATCGAGACGTGCTAG	-0.0338
TCAACATTCACCATGGCACTGTGCTAG	0.437
TTATATCTGTGTTATTAAATTGTGCTA	0.595
TCATATACCTGTATATCACTGTGCTAG	0.227
TTTGGTTTCGGACTGGGTTAGTGCTAG	10.7
TCATTTTTTGTAATCGAACTGTGCTAG	0.506
GACGATATCGGGTTTGGAGACGTGCTA	-0.119
GACGGACTGCTACCGCTGACGTGCTAG	-0.641
AATGATTGGTTGAACATGAAGTGCTAG	0.00431
GACGATATCTGTCTCGAGACGTGCTAG	0.837
TTAGGTTTCGACTTTCGTTTAGTGCTA	8.89
AAGTTTTTATTTTCTGAATGGTGCTAG	1.65
GACTGTATCGGTTTCGGGACGTGCTAG	6.08
GACGGTATCTACTTTCGGGACGTGCTA	1.86
TTTGCTTTCTTTTTGCACTCGTGCTAG	1.38
GACGGTATCGGTCTCGGCACGTGCTAG	7.54
GACGATTTCAGTCGCGAGACGTGCTAG	0.245
GACGGTATCGACTATCGGGGCGTGCTA	5.07
TTAGAACTGAGCCTCGATTAGTGCTAG	-0.55

Sample 2
Target: Histone acetyltransferase KAT6A, winged helix 1, GST fusion (KAT6A, Homo sapiens, UniProt Q92794, residues 1-85)
Method: protein binding microarray
Form: double-stranded DNA, one strand shown
Matrix: in vitro
Concentration: not given
Setting: 8-mer, flanks averaged, mean of 2 arrays, mostly near background
Baseline: not given
Reading: higher = stronger binding
Construct (chain): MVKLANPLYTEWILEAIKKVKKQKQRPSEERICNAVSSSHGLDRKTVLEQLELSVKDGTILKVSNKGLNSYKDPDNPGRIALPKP
Strand	E-score
AGAACCAG	-0.0942
AGTATGAT	-0.141
CCACTTGA	-0.143
CCGTGGGA	0.114
CTGAACAA	-0.00625
ACTCAGGG	-0.235
ACGTGACG	0.0828
ACGACAGA	-0.104
ATATGTGA	-0.0885
CAGACTGA	-0.172
AAACTCGA	-0.187
AATTGAAG	-0.0797
GATTATGA	-0.282
AGCCGTGG	0.281
GCCGGACC	0.257
GGCGCCAC	0.322
ATTAGCCC	0.0379
CAGTACAA	-0.2
CGAGACAC	-0.0593
TCCGTTAA	0.214
AAGACCCC	-0.164
CACTCTGC	-0.139
CCAGGGTA	-0.0694
AGAGACCC	0.0597
CGAGCAAC	0.153

Sample 3
Target: RING finger protein unkempt homolog, zinc fingers 1-6, GST-SBP tag (UNK, Homo sapiens, UniProt Q9C0B0, residues 30-357)
Method: RNA Bind-n-Seq
Form: RNA
Matrix: in vitro
Concentration: not given
Setting: RNA with constant flanks, human-mouse chimeric sites, ends assumed
Baseline: input RNA pool
Reading: higher = stronger binding
Target sequence (chain): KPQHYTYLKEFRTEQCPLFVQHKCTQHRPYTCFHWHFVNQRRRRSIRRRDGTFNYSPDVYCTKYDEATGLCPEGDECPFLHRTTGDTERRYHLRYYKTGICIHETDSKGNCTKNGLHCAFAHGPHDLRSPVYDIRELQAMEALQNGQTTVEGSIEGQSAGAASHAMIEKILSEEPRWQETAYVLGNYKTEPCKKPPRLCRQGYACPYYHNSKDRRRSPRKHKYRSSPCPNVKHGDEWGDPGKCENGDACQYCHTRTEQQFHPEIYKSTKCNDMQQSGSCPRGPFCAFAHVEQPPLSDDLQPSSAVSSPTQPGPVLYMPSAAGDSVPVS
Strand	bound/input enrichment
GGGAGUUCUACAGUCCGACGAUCCUGUGUGUGCUGAAUAAAUGGCUUGUAAAGAAGUUUUCCAAGUUGUAAACCCAUGCUGUUAUUAUAGUUGCUGCAAAAUGUUCUUCCUGAUAUUGAUUUUAUUUGUUCUGACUCUCCCUCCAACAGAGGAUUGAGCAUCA	0.999 ratio
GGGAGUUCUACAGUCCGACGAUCCUGUUUUACAGCCACACCAAUCUUGGCAUGUAUUAAGGAAAAAAAAAAUCCCUGUUCAAGUAGUUUUUCCACCUAUCAGCACUGAGUAAAUGCCAUAACUCCGCGGAAAUGGUCUAAAUACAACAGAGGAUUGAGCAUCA	0.182 ratio
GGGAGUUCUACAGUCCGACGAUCCCCCACAACCAUUUGCAAGAGUUGGAAUGCACUCUCUUUUUUAAAAAACAUGUAUACAUUUUAGGGCUGUAGAUUUAUUUUCCUGGUUUUGUUUUUCAUUGCUGACUUUUGAGCACAGAACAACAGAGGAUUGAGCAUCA	1.36 ratio
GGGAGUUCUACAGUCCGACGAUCUGACAAGGGCACUGCAGGGCCAUGCCUUUCCUUGACAUACAGAAAAAGUUCGGCCUUAGCCUGGACCGGCACUUUAUGUUCCUAAGCGCAGAACAGCCCUAUAAGAACGCCGCUCGGUGCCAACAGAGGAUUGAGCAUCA	0.0659 ratio
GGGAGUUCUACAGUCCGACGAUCGCAUAUGGUUAUCGAGGAAAGGACUGUAGAGCGAAUGUUUACCUUCUUCCCACAGGGGAGAUAGUUUAUUUUAUCGCCUCAGUGGUAGUCCUGUUUAAUUAUGAGGAGAGGACUCAGCGACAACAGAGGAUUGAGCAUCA	0.272 ratio
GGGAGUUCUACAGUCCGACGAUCGAGCGUCUUGCCCGCACUGGGAUCAUCGUGACCACUAGUGAGGCUGUUCUGCUUCAGCUGGUAGCUGACAAAGACCACCCGAAGUUCAAGGAAAUUCAGAACCUAAUUAAGGCGAGUGCCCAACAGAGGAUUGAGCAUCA	0.128 ratio
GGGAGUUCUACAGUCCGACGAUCUUCAAAGAAAAGGGCAGCUGUGUCAUUUCAUAAGUAACUCUGGGGGAUAAGUGGAAGGUUCUUUUGUUUAAUUUUCCCCCAGAUAAAGCCAAAGUGUGUGUUGAAGAACUGAGAAAAAAUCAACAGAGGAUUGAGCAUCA	0.0825 ratio
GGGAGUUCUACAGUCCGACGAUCCUUAAUGUUAAUAUUUUUAAAGGAAGCAAGCUAAAAUGUCUGCUUUUGGUACAACACGCAUUAAUAAAAGGUUAAGUUUUGUUUUCCACUGAAGUACUAUUUAACAUACAUCUCAGAAACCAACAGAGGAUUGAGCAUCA	0.202 ratio
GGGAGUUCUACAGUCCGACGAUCCGGAGCCCUCCUCUCCCACAGGCCCAAGAUGUGACCCACCAGUGCCUUUUGUCUUCCUGUCAGCUCUGUCAAUCACGCCUGUCCUCUCACGCCCACACCAAGUGCCCCCACCCCUAAGGGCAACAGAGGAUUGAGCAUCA	0.486 ratio
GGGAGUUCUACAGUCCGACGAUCAGGAGGAGAUUAAAGGGUGAGAGUGGGGUGGAAGACUGUGUCAUGGCUCUGGAGACACUGUUCAGUGUCCUGCUUUCUCUGUGCAGACUGAUGGCCCCCUACACACCCUUUCUGACUGAGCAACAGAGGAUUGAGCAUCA	0.0664 ratio
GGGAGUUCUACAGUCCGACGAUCGCUCCUCUUCCGCACUCAGCCUGGGGACACUGGGCUGGGACCAGAAUCCAGCUUUCUUUUAAAACUCUCAGUGUAACUGUAUCCCGUGACAUUUCAUUUUUUUUAAAAGAAAAAAACUUUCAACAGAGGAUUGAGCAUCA	0.0949 ratio

Sample 4
Target: Ras GTPase-activating protein-binding protein 1, C-terminal RGG region (G3BP1, Homo sapiens, UniProt Q13283)
Sequence of UniProt Q13283 (whole entry, looked up): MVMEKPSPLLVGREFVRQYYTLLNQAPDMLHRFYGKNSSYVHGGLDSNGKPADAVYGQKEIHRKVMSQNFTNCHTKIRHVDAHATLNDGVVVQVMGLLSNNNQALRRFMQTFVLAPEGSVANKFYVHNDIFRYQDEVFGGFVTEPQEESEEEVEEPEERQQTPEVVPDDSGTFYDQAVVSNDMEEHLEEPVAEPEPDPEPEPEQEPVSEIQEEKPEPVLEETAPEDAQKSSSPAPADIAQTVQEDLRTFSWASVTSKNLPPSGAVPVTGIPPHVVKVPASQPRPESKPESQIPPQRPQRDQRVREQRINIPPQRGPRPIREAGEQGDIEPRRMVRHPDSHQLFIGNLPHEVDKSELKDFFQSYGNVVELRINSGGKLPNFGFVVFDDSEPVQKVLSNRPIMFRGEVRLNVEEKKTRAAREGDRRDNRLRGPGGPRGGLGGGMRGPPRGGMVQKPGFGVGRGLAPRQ
Method: RNA Bind-n-Seq
Form: RNA
Matrix: in vitro
Concentration: 1 µM
Setting: whole 134-nt RNA, ends assumed
Added: 150 mM KCl
Baseline: input library
Reading: higher = stronger binding
Strand	log2 enrichment
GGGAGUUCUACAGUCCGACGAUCUCAAGUCCUGUGCUACACAUCGUAUGUACCGAAUCGGUGGUUUUUUUGGAAAGGAAAGUAUUAUGUUACGCCGUUCGGAUCUGCACUUCCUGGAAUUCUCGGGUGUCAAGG	-1.29
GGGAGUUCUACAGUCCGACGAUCAGUCCUGUGCUACACAUCGUAUGUACCGAAUCGGGAAAGGGAAAAAAAGGGAAAGGGAAAGUAUUAUGUUACGCCGUUCGGAUCUGCACUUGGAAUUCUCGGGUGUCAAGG	0.0598
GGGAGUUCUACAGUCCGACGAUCGUGCUACACAUCGUAUGUACCGAAUCGGGGUUUUUUUGGGGUUUUUUUGGGGAAAAAAAGGGGAAAGUAUUAUGUUACGCCGUUCGGAUCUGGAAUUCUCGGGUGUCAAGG	0.101
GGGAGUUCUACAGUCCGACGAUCUGGCCCUGGUGGCAUGCGGGGAGGAAGAGGUGGCCUCAUGGAUCGUGGUGGUCCCGGUGGAAUGUUCAGAGGUGGACGUGGUGGAGACAGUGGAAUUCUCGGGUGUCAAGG	3.67
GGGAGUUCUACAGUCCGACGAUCCUCAAGUCCUGUGCUACACAUCGUAUGUACCGAAUCGGUGGAAAAAAAGGUGGAAAGUAUUAUGUUACGCCGUUCGGAUCUGCACUUCCAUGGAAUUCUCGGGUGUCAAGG	-1.1
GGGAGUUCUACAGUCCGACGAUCCUCAAGUCCUGUGCUACACAUCGUAUGUACCGAAUCGGGGCGGGCGGGGCGGGAAAGUAUUAUGUUACGCCGUUCGGAUCUGCACUUCCAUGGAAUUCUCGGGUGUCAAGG	1.29
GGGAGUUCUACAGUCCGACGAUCUAACUUUAGAGGAGGAUCUGAUGGAUAUGGCAGUGGACGUGGAUUUGGAGAUGGCUAUAAUGGGUAUGGAGGAGGACCUGGAGGUGGCAAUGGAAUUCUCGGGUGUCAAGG	-0.522
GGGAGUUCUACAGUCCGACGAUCUCCACCCCUUCUUCCUCCCUUUAACUUAUCCAUUCACUUAAAACAUUACCUGGUCAUCUGGUAAGCCCGGGACAGUAAGCCGAGUGGCUGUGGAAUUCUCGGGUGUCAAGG	-0.0048
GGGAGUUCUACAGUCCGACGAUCAGUCCUGUGCUACACAUCGUAUGUACCGAAUCGGGUUUUUUUGGGUUUUUGGGAGGGAAAGUAUUAUGUUACGCCGUUCGGAUCUGCACUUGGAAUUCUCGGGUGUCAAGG	0.402
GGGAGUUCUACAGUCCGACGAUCUAACUUUAGAGGAGGAUCUGAUGGAUAUGGCAGUGGACGUGGAUUUGGGGAUGGCUAUAAUGGGUAUGGAGGAGGACCAGGAGGUGGCAAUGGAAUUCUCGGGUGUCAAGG	-0.879
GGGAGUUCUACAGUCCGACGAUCUGUGCUACACAUCGUAUGUACCGAAUCGGGGAAAAAAAGGGGAAAAAGGGGAAAAAAAGGGGAAAGUAUUAUGUUACGCCGUUCGGAUCUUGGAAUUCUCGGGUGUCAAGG	0.333
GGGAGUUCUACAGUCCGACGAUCUCAAGUCCUGUGCUACACAUCGUAUGUACCGAAUCGGUUUUUGGUGGUUUUUGGAAAGUAUUAUGUUACGCCGUUCGGAUCUGCACUUCCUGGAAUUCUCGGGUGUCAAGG	-1.09
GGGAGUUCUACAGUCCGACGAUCUUUAGUGACUUUGGAUGAAGUAACUGAAGAGGAUGAAGACUCUCUGGCGGAUUUUAACAACCUUAAAGAAGAGCUUAAUUUUGUUACUGUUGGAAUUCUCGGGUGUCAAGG	-2.13
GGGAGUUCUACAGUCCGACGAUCAGUCCUGUGCUACACAUCGUAUGUACCGAAUCGGGAAAAAAAGGGAAAAAGGGAGGGAAAGUAUUAUGUUACGCCGUUCGGAUCUGCACUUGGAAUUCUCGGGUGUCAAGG	0.905

Some of these lines once more (sample 2):
Strand	E-score
ACGTGACG	0.0828
ACGACAGA	-0.104
ATATGTGA	-0.0885
CAGACTGA	-0.172
AAACTCGA	-0.187
AATTGAAG	-0.0797
GATTATGA	-0.282
AGCCGTGG	0.281
